# Published values of several laboratories.
# “And” joins repeats or separate records; there may be more than shown. ± marks the error that the study gave.
Structure (SMILES),cell line,test,system,conditions,scale,measurement,result
CC(C)[C@H](N)C(=O)N1CCC[C@H]1B(O)O,EA.hy926 CARD8 knockout,CellTiter-Glo,,concentration not given,,viability,96.6% and 97% and 96.9%
C=C(C)[C@@H]1CCC(C)=C[C@H]1c1c(O)cc(CCCCC)cc1O,human CATSPER2-/- sperm,fluorimetry,,10 µM,,Ca2+ signal,inhibited
C#Cc1cccc(Nc2ncnc3cc(OCCOC)c(OCCOC)cc23)c1,SK-BR-3,MTT,,,,sublethal dose,2 µM
Nc1ncc(-c2nc(N3CCOCC3)nc(N3CCOCC3)n2)c(C(F)F)n1,MIA PaCa-2,cell growth,,72 h,,GI50,0.555 µM
OC(c1ccc(-c2ccc(CN3CCN(Cc4ccncc4)CC3)cc2)c(F)c1)(C(F)(F)F)C(F)(F)F,EL4,"ATAC-seq, measured: RORγt-regulated Th17 genes",,"5 µM, with: PMA + ionomycin",,chromatin accessibility,decreased
CCN(CC)CCOC(=O)C(O)(c1ccccc1)c1ccccc1,THP-1,pyroptotic LDH release,,"2 µM, 40 min, with: LPS then nigericin",,inhibition,24.7%
CCCC[C@@H]1NC(=O)[C@H](Cc2ccc(O)cc2)NC(=O)[C@@H]2CCCN2C(=O)[C@H](CC(=O)O)NC(=O)[C@H](C)NC(=O)[C@H](Cc2ccccc2)NC(=O)[C@@H]2CSCCC(=O)N3CN(CN(C3)C(=O)CCSC[C@@H](C(=O)N[C@@H](CNC(=O)CCc3cn(CCOCCOCCOCCN(CCOCCOCCOCCC(=O)N[C@H]4CSCCC(=O)N5CN6CN(C5)C(=O)CCSC[C@H](NC(=O)[C@@H](CC(=O)O)NC(=O)[C@H](Cc5cccc7ccccc57)NC(=O)[C@@H]5CCCN5C4=O)C(=O)N[C@@H](CCSC)C(=O)N[C@@H](CCCCNC(=N)N)C(=O)N[C@@H](CC(=O)O)C(=O)N[C@@H](Cc4c[nH]c5ccccc45)C(=O)N[C@@H](CO)C(=O)N[C@@H]([C@@H](C)O)C(=O)N4CCC[C@H]4C(=O)N4C[C@H](O)C[C@H]4C(=O)N[C@@H](Cc4c[nH]c5ccccc45)C(=O)N[C@H](C(N)=O)CSCCC6=O)CCOCCOCCOCCn4cc(CCC(=O)NC[C@H](NC(=O)[C@@H]5CSCCC(=O)N6CN7CN(C6)C(=O)CCSC[C@H](NC(=O)[C@H](Cc6ccc(O)cc6)NC(=O)[C@@H]6CCCN6C(=O)[C@@H](C)NC(=O)[C@H](CCC(=O)O)NC(=O)[C@@H]6CCCN6C(=O)[C@H](CC(C)(C)C)NC(=O)[C@@H](NC(C)=O)CSCCC7=O)C(=O)N[C@@H](Cc6ccccc6)C(=O)N[C@@H](C)C(=O)N[C@@H](CC(=O)O)C(=O)N6CCC[C@H]6C(=O)N[C@@H](Cc6ccc(O)cc6)C(=O)N[C@@H](CCCC)C(=O)N5)C(N)=O)nn4)nn3)C(N)=O)NC1=O)C(=O)CCSC[C@H](NC(C)=O)C(=O)N[C@@H](CC(C)(C)C)C(=O)N1CCC[C@H]1C(=O)N[C@@H](CCC(=O)O)C(=O)N[C@H](C)C(=O)N1CCC[C@H]1C(=O)N[C@@H](Cc1ccc(O)cc1)C(=O)N2,human PBMC with HT-1376 coculture,IL-2 secretion,,with: anti-CD3,,EC50,0.00047 ± 0.0003 µM
C[C@]12CC[C@H]3[C@@H](CC[C@]4(O)C[C@@H](O)CC[C@]34C=O)[C@@]1(O)CC[C@@H]2C1=CC(=O)OC1,human iPSC cardiomyocytes,plate-normalised,,"concentration not given, hit retest","baseline: vehicle controls, SDs below control",MyBP-C level change,19.2 SD
Oc1ccc(C2(c3ccc(O)cc3)c3ccccc3-c3ccccc32)cc1,HepG2 spheroids,Hoechst flow cytometry,,"0.1 µM, 24 h",,G2 phase cells,18.2 ± 5.72%
CN1CCc2[nH]c(-c3ccnc(NC(=O)[C@@H](CC(F)F)c4ccc(F)cc4)c3)c(Nc3ccccc3)c2C1=O,MOLM-13,"mRNA level, RNA-seq, measured: PHGDH",,"200 nM, 24 h",baseline: DMSO,log2 fold change,-4.53
Nc1ncnc2c1ncn2[C@@H]1O[C@@H]2COP(=O)(O)O[C@H]3[C@@H](O)[C@H](n4cnc5c(=O)[nH]cnc54)O[C@@H]3COP(=O)(O)O[C@H]2[C@H]1O,HFF-1,"RNA sequencing, measured: Reactome R-HSA-3906995",,downregulated pathway,baseline: Zika virus alone,pathway fold enrichment,6.02
O=c1c(O)c(-c2ccc(O)c(O)c2)oc2cc(O)cc(O)c12,SH-SY5Y Aβ-GFP cells,Aβ folding,,1 to 5 µM,baseline: untreated induced cells,GFP fluorescence,116 to 124%
CC(C)(C)c1cc(C=C(C#N)C#N)cc(Br)c1O,hCMEC/D3,"outcome: decreased, Western blot, measured: LRP-1",,"100 µM, with or without insulin",,membrane expression,decreased
C=CCN1C[C@H](C)N([C@@H](c2cccc(O)c2)c2cccc(C(=O)N(C)c3cccc(F)c3)c2)C[C@H]1C,HEK293T ATF4-FLuc reporter,"ATF4 reporter gene, activator, luciferase reporter",,,,EC50,> 9.96 µM
CC(C)(O)C(Cl)(Cl)Cl,THP-1,pyroptotic LDH release,,"2 µM, 40 min, with: LPS then nigericin",,inhibition,-0.316%
CO[C@H]1[C@H](O)[C@H](O[C@H]2CC[C@@]3(C=O)[C@H](CC[C@@H]4[C@@H]3CC[C@]3(C)[C@@H](C5=CC(=O)OC5)CC[C@]43O)C2)O[C@@H](C)[C@@H]1O,human iPSC cardiomyocytes,plate-normalised,,"concentration not given, hit retest","baseline: vehicle controls, SDs below control",MyBP-C level change,13.2 SD
CN1CCN(C2(CNC3CCN(c4cccc(-c5cc6cc(F)ccc6[nH]5)c4)CC3)CCC2)CC1,TK-10,,,,,GI50,1.71 µM
COc1c(C)c2c(c(O)c1C/C=C(\C)CCC(=O)O)C(=O)OC2,THP-1,cell proliferation,blood cancer,,,IC50,0.437 µM
O=C1N(Cc2ccccc2Cl)c2ccccc2C12NN=C(c1ccccc1)S2 (centres unmarked),MDA-MB-468,"gene expression array, measured: RPS2 mRNA",,"10 µM, 12 h","baseline: untreated, up",fold change,1.53
Cc1cc(C(C)(C)c2ccc(O)c(C)c2)ccc1O,HepG2 spheroids,Hoechst flow cytometry,,"0.01 µM, 96 h",,S phase cells,8.76 ± 2.99%
C/C=C(/C)C(=O)O[C@H]1C(C)=C2[C@H]([C@@H]1OC(=O)CCCCCCC)[C@@](C)(OC(C)=O)C[C@H](OC(=O)CCC)[C@@]1(O)[C@H]2OC(=O)[C@@]1(C)O,HEK-293T,"RNA-seq GSEA, measured: Hallmark UV response up",,"500 nM, 6 h",direction not given,normalized enrichment score,-1.24
COc1cc(CCC[P+](c2ccccc2)(c2ccccc2)c2ccccc2)c(OC)c2c1OCO2.[I-],TK-10,SRB,,,,TGI,-4.63 log M
COc1ccc2c(c1)[nH]c1c(C)nccc12,DU-145,"bisulfite pyrosequencing, measured: RASSF1A promoter CpG site 32",,concentration not given,baseline: vehicle,methylation reduction,0.2%
OCC(Br)(Br)Br,THP-1,pyroptotic LDH release,,"2 µM, 40 min, with: LPS then nigericin",,inhibition,-7.17%
CC(CCc1ccccc1)NC(C)C(O)c1ccc(O)cc1 (centres unmarked),MDA-MB-231 BAX/BAK siRNA knockdown,"cell viability, CellTiter-Glo",,,direction not given,Z score,1.41
Cn1nccc1Nc1nccc(-c2cc3c(s2)C(C)(C)N(CCN2CCOCC2)C3=O)n1,HCT116,IncuCyte,,"concentration not given, 8 (unit not given)",,PI-positive cells,4.08 count and 3.08 count and 2.42 count
Cn1cncc1C1=CN(c2ncnc3[nH]cnc23)CCS1,NCI/ADR-RES,,,ovarian cancer cell line,,CC50,> 200 µM
c1csc(-c2ccc(-c3cccs3)s2)c1,THP-1,pyroptotic LDH release,,"2 µM, 40 min, with: LPS then nigericin",,inhibition,11.1%
Cc1sc2c(c1C)C(c1ccc(Cl)cc1)=N[C@@H](CC(=O)OC(C)(C)C)c1nnc(C)n1-2,iCas9-MOLM-13 sgGFP,"RNA-seq, measured: TERT",,"50 nM, 24 h",baseline: DMSO,log2 fold change,-1.06
N.N.[Cl][Pt][Cl],RPE-1 hTERT TP53-/- cells,,,"uninfected, base editing screen",,LD20,1 µM
CC[C@H](C)[C@H](NC(=O)[C@H](C)NC(=O)CNC(=O)[C@H](Cc1ccccc1)NC(=O)[C@H](CC(N)=O)NC(=O)[C@H](CC(N)=O)NC(=O)[C@H](CO)NC(=O)[C@H](CO)NC(=O)[C@H](Cc1c[nH]cn1)NC(=O)[C@@H](NC(=O)[C@H](CC(C)C)NC(=O)[C@H](Cc1ccccc1)NC(=O)[C@H](CC(N)=O)NC(=O)[C@H](C)NC(=O)[C@H](CC(C)C)NC(=O)[C@H](CCCNC(=N)N)NC(=O)[C@H](CCC(N)=O)NC(=O)[C@@H](NC(=O)[C@H](C)NC(=O)[C@@H]1CSSC[C@H](NC(=O)[C@@H](N)CCCCN)C(=O)N[C@@H](CC(N)=O)C(=O)N[C@@H]([C@@H](C)O)C(=O)N[C@@H](C)C(=O)N[C@@H]([C@@H](C)O)C(=O)N1)[C@@H](C)O)C(C)C)C(=O)N[C@@H](CC(C)C)C(=O)N[C@@H](CO)C(=O)N[C@@H](CO)C(=O)N[C@H](C(=O)N[C@@H](CC(N)=O)C(=O)N[C@H](C(=O)NCC(=O)N[C@@H](CO)C(=O)N[C@@H](CC(N)=O)C(=O)N[C@H](C(=O)N[C@@H](Cc1ccc(O)cc1)C(N)=O)[C@@H](C)O)C(C)C)[C@@H](C)O,INS-1,MTT,,"1 µM, 24 h",,viability,54.6% and 54.1%
Cn1cc2cc(C(F)(F)c3nnc4ccc(-c5cnn(C6CC6)c5)nn34)c(F)cc2n1,MKN-45,PI flow cytometry,,"20 nM, 24 h",,cells in S phase,23.4% and 26.5% and 27.1%
Cc1nn(-c2nc3ccc(Cl)c(Cl)c3[nH]2)c(O)c1C1OC(=O)c2ccccc21 (centres unmarked),RAW-ISG,CCK-8,,0.1 µM,,viability,100% and 97.4% and 107%
CCN(CC)c1ccc(C=NNC(=O)CSc2nc3ccccc3c(=O)n2Cc2ccc(S(N)(=O)=O)cc2)c(O)c1,Malme-3M,NCI five-dose screen,,,,CC50,> 100 µM
CC(C)N1CCC(NC2CCN(c3cccc(-c4cc5cc(F)ccc5[nH]4)c3)CC2)CC1,CAKI-1,,,,,GI50,1.54 µM
COc1c(CCC[P+](c2ccccc2)(c2ccccc2)c2ccccc2)cc2c(c1OC)OCO2.[I-],Malme-3M,SRB,,,,LC50,-4.44 log M
O=S(=O)(c1ccc(O)cc1)c1ccc(O)cc1,HepG2 spheroids,Hoechst flow cytometry,,"1 µM, 24 h",,G2 phase cells,19.8 ± 4.37%
Cc1cnc2ccc3c(nc(N)n3C)c2n1,BALB/c 3T3,colony formation,,0.5 µM,,plating efficiency,48%

# For quick reference, copied from above:
Structure (SMILES),cell line,test,system,conditions,scale,measurement,result
Cc1sc2c(c1C)C(c1ccc(Cl)cc1)=N[C@@H](CC(=O)OC(C)(C)C)c1nnc(C)n1-2,iCas9-MOLM-13 sgGFP,"RNA-seq, measured: TERT",,"50 nM, 24 h",baseline: DMSO,log2 fold change,-1.06
N.N.[Cl][Pt][Cl],RPE-1 hTERT TP53-/- cells,,,"uninfected, base editing screen",,LD20,1 µM
CC[C@H](C)[C@H](NC(=O)[C@H](C)NC(=O)CNC(=O)[C@H](Cc1ccccc1)NC(=O)[C@H](CC(N)=O)NC(=O)[C@H](CC(N)=O)NC(=O)[C@H](CO)NC(=O)[C@H](CO)NC(=O)[C@H](Cc1c[nH]cn1)NC(=O)[C@@H](NC(=O)[C@H](CC(C)C)NC(=O)[C@H](Cc1ccccc1)NC(=O)[C@H](CC(N)=O)NC(=O)[C@H](C)NC(=O)[C@H](CC(C)C)NC(=O)[C@H](CCCNC(=N)N)NC(=O)[C@H](CCC(N)=O)NC(=O)[C@@H](NC(=O)[C@H](C)NC(=O)[C@@H]1CSSC[C@H](NC(=O)[C@@H](N)CCCCN)C(=O)N[C@@H](CC(N)=O)C(=O)N[C@@H]([C@@H](C)O)C(=O)N[C@@H](C)C(=O)N[C@@H]([C@@H](C)O)C(=O)N1)[C@@H](C)O)C(C)C)C(=O)N[C@@H](CC(C)C)C(=O)N[C@@H](CO)C(=O)N[C@@H](CO)C(=O)N[C@H](C(=O)N[C@@H](CC(N)=O)C(=O)N[C@H](C(=O)NCC(=O)N[C@@H](CO)C(=O)N[C@@H](CC(N)=O)C(=O)N[C@H](C(=O)N[C@@H](Cc1ccc(O)cc1)C(N)=O)[C@@H](C)O)C(C)C)[C@@H](C)O,INS-1,MTT,,"1 µM, 24 h",,viability,54.6% and 54.1%
Cn1cc2cc(C(F)(F)c3nnc4ccc(-c5cnn(C6CC6)c5)nn34)c(F)cc2n1,MKN-45,PI flow cytometry,,"20 nM, 24 h",,cells in S phase,23.4% and 26.5% and 27.1%
